# Results pooled from the literature.
# Every numbered part comes from another study and shows a few of its results, in no order. Several values in a cell are separate wells, animals, samples, runs or records.
# Chain of UniProt P45985 (whole entry, looked up): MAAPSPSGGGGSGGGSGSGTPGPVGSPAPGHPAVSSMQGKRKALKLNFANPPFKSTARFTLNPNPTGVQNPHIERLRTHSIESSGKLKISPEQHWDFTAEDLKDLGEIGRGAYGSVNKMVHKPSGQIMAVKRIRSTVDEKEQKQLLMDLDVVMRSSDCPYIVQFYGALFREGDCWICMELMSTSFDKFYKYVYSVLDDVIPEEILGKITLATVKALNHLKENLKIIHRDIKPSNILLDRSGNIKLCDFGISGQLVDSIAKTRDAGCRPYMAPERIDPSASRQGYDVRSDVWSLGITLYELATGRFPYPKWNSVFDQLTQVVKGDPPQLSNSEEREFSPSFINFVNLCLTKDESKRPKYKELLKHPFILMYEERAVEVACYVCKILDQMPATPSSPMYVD
# Chain of UniProt O15111 (whole entry, looked up): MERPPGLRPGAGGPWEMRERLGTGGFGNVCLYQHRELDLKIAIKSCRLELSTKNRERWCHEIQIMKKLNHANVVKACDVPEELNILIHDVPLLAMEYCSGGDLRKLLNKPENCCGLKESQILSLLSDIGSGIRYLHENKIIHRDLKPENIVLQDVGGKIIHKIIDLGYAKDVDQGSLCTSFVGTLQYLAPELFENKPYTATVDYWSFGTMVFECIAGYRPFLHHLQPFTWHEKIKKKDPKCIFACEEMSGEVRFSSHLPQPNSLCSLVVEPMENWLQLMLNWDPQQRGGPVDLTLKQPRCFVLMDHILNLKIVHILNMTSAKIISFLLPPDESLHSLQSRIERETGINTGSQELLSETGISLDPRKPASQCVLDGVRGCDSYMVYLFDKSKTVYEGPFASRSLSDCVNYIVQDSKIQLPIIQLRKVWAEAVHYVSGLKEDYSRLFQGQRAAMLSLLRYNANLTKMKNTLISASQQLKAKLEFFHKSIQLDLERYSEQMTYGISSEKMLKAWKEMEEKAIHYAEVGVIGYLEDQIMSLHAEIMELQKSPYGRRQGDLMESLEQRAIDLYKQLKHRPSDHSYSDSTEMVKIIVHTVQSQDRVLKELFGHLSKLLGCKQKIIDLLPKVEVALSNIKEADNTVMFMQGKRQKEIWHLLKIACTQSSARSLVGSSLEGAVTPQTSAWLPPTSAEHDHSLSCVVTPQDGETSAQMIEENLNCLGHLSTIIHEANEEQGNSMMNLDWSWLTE
# Chain of UniProt O75716 (whole entry, looked up): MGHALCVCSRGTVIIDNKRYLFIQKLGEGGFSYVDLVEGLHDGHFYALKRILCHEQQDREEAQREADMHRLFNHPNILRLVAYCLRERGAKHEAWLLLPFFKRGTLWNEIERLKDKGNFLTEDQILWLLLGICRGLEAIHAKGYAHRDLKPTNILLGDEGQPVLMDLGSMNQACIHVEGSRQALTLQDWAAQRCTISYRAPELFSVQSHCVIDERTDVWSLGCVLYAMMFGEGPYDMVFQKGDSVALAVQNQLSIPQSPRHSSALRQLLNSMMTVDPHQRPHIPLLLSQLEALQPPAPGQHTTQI
# Chain of UniProt P29322 (whole entry, looked up): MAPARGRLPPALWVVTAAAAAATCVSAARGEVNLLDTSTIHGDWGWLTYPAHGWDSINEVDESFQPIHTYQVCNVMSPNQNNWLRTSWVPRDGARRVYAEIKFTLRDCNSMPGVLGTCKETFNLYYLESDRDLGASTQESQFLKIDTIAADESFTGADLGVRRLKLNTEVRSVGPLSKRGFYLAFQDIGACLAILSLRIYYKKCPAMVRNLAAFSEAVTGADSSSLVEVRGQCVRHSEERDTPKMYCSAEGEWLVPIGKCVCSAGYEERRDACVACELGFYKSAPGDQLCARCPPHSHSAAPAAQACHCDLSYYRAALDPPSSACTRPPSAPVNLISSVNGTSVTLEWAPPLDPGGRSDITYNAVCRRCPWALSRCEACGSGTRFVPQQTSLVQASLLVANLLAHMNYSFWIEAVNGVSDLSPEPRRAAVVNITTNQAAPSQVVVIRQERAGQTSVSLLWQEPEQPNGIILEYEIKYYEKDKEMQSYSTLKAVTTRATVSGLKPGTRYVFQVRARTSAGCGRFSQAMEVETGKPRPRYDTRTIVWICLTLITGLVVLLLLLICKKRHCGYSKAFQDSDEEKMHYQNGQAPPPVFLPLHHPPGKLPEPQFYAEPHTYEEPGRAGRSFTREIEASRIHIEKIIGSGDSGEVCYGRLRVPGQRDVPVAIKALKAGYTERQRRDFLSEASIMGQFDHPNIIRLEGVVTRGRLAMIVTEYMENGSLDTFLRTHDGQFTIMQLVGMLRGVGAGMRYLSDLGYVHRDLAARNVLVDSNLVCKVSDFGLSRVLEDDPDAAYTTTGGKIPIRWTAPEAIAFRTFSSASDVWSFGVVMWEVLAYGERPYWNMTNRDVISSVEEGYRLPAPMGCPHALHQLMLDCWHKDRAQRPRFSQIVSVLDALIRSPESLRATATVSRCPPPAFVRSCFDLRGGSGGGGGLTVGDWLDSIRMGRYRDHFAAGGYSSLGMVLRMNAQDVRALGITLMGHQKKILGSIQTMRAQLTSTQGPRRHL

# Block 1 — method: Incucyte 3D growth; tested at: 30 µM; reading: higher = more growth
# SMILES: CC(C)(C(=O)O)[C@H](NC(=O)Cc1cccc(I)c1)c1ccc2oc(=O)[nH]c2c1
cell line,time,spheroid area
KP-4,18 h,1.03e+07 a.u. and 9.67e+06 a.u. and 1.24e+07 a.u. and 8.98e+06 a.u. and 1.09e+07 a.u. and 1.23e+07 a.u.
MEL-JUSO,216.52 h,1.54e+07 a.u. and 1.56e+07 a.u. and 1.79e+07 a.u. and 2.16e+07 a.u. and 2.56e+07 a.u.
PC-9,6 h,2.31e+08 a.u. and 2.16e+08 a.u. and 2.17e+08 a.u. and 2.29e+08 a.u. and 2.14e+08 a.u. and 2.12e+08 a.u.

# Block 2 — read-out: enzyme activity; mode: inhibitor; tested at: 0.5 µM; reference: control
# Target: Mitogen-activated protein kinase kinase kinase 11 (MAP3K11, Homo sapiens, UniProt Q16584)
# Chain of UniProt Q16584 (whole entry, looked up): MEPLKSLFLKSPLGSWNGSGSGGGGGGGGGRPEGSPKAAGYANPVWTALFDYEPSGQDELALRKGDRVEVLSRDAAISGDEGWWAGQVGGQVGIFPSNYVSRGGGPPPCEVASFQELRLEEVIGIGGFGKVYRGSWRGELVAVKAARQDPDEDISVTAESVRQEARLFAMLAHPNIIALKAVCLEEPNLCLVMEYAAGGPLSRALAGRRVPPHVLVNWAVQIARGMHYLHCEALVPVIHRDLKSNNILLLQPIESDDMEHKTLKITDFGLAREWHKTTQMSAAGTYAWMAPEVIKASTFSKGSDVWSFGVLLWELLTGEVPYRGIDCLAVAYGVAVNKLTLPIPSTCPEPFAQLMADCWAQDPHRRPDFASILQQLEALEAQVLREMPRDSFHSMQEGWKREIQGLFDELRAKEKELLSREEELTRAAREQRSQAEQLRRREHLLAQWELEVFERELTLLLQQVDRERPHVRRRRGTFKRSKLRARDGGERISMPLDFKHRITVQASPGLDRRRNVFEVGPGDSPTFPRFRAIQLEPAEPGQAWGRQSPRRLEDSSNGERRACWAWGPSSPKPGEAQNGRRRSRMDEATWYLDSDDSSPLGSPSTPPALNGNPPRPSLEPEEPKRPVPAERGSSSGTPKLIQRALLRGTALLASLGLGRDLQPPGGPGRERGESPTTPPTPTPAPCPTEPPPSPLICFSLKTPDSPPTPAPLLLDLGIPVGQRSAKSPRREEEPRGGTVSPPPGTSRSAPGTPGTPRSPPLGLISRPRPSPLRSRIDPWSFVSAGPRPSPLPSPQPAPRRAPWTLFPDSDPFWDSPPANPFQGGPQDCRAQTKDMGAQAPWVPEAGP
SMILES,remaining activity [%]
O=C(Nc1cccc(Nc2cc(Nc3cccc(C(F)(F)F)c3)ncn2)c1)C1CC1,97.7
OCC(O)CCON=C1C(c2c(O)[nH]c3ccccc23)=Nc2ccccc21 (stereo not shown),10.5
CN(C)c1ccc(C=C2C(=O)Nc3ccccc32)cc1,88.4
COc1ccc(CNC(=O)Nc2ncc([N+](=O)[O-])s2)cc1,101
COc1ccc(OC)c2c(=S)c3ccccc3[nH]c12,107
O=c1c2ccccc2[nH]c(=S)n1CCN1CCC(=C(c2ccc(F)cc2)c2ccc(F)cc2)CC1,95.2
Cc1nc(-c2ccccc2)c(-c2ccncc2)o1,98.7
O=S(=O)(c1cccc2cnccc12)N1CCCNCC1,99.7
Cn1c2ccccc2c2c3c(c4c5ccccc5n(CCC#N)c4c21)CNC3=O,2.19
COc1ccc(C(=O)Nc2sc3c(c2C(N)=O)CCCC3)cc1OC,96.8
Nc1ncnc2n[nH]c(Nc3ccc(F)cc3)c12,93.9
Cc1cccc(-c2[nH]c(C(C)(C)C)nc2-c2ccc3c(c2)OCO3)n1,96.2
COc1cc2ncnc(Nc3ccc(Oc4ccccc4)cc3)c2cc1OC,68.5
COc1cc2nccc(Oc3ccc(NC(=S)NC(=O)c4ccccc4C)cc3)c2cc1OC,95.5

# Block 3 — SMILES: CC(C)(O)c1cncc(-c2nc3ccc(F)cc3n2C2CC2)c1; read-out: cell-free assay; method: competition with immobilised ligand; tested at: 1 µM
target,remaining binding [%]
"Ephrin type-A receptor 8 (EPHA8, Homo sapiens, UniProt P29322)",100
"Inhibitor of nuclear factor kappa-B kinase subunit alpha (CHUK, Homo sapiens, UniProt O15111)",100
"Receptor-type tyrosine-protein kinase FLT3, autoinhibited (FLT3, Homo sapiens, UniProt P36888)",100
"Dual specificity mitogen-activated protein kinase kinase 4 (MAP2K4, Homo sapiens, UniProt P45985)",100
"Epidermal growth factor receptor (EGFR, Homo sapiens, UniProt P00533, L858R)",100
"Serine/threonine-protein kinase 16 (STK16, Homo sapiens, UniProt O75716)",100

# Block 4 — species: human; sample: microsomes or S9; tested at: 2 µM; time: 0.5 h
Compound,remaining compound
Cc1nc2c(c(C)c1CNC(=O)COC1CCCCC1)c(=O)[nH]n2C,62.2%
COc1ccc(CN2CCC3(CCNCC3)C2)cc1Cn1cncn1,19.3%
c1ccc2c(c1)oc1c(N3CCN(Cc4ccc5c(c4)OCO5)CC3)ncnc12,76.1%
CC(Nc1ccc2cc[nH]c2n1)c1cn2ccsc2n1 (stereo not shown),60.4%
CCn1nccc1C(C)NS(=O)(=O)c1ccc(Br)s1 (stereo not shown),34.8%

# A few entries again (block 2):
SMILES,remaining activity [%]
COc1ccc(C(=O)Nc2sc3c(c2C(N)=O)CCCC3)cc1OC,96.8
O=c1c2ccccc2[nH]c(=S)n1CCN1CCC(=C(c2ccc(F)cc2)c2ccc(F)cc2)CC1,95.2
Cc1cccc(-c2[nH]c(C(C)(C)C)nc2-c2ccc3c(c2)OCO3)n1,96.2
CN(C)c1ccc(C=C2C(=O)Nc3ccccc32)cc1,88.4
